Measurements collected from several papers.
Parts stem from different laboratories: compare values within a part only.

Block 1 — technique: protein-binding microarray; molecule type: double-stranded DNA, one strand shown; sample: in vitro; tested at: 250 nM; notes: 60-bp whole probe; added: salmon DNA 0.4 mg/ml; relative to: random background probes; direction: higher = stronger binding; shared flanks, not repeated: GCCTAGCAC … GTCTTGATTCGCTTGACGCTGCTG
Target: Interferon regulatory factor 5, full length, phosphomimetic (IRF5, Homo sapiens, UniProt Q13568-2, residues 1-514, K96S/S451D/S453D/S456D/S462D)
| Oligonucleotide | log fluorescence [z-score] |
| --- | --- |
| GGTCCCACCTCTTGGTGGGAGTGCTAG | -0.79 |
| GACGGACGGCTTATCCTGACGTGCTAG | -0.676 |
| GACGGGTTCCTACTGCTGACGTGCTAG | -0.352 |
| CTTTATGTACTCTCTCCATGTGTGCTA | 0.32 |
| TAGAGTCTCAACCCCCAATAAGTGCTA | -0.015 |
| TTGGGTTCCCTTTTCCTTTAGTGCTAG | 0.324 |
| TTAGATATCGGTTATCGATTAGTGCTA | 7.97 |
| GACCATATCGGGACTGGAGACGTGCTA | 0.425 |

Block 2 — organism: SARS-CoV-2; observed: cytopathic effect; cells: Vero E6; tested at: 10 µM
| SMILES | inhibition [%] |
| --- | --- |
| C[C@@H]1O[C@@H](O[C@@H]2[C@@H](O)[C@H](OCCc3ccc(O)c(O)c3)O[C@H](CO)[C@H]2OC(=O)/C=C/c2ccc(O)c(O)c2)[C@H](O)[C@H](O)[C@H]1O | -5.7 |
| S=C=Nc1cccc(NC(=S)NCCCCNC(=S)Nc2cccc(N=C=S)c2)c1 | -20.3 |
| O=C1C=CC(=O)C2=C1C1c3ccccc3C2c2ccccc21 | 3.2 |
| Oc1cc(CNC(=S)/C=C/c2cc(O)c(O)c(Br)c2)cc(O)c1O | 2.9 |

Block 3 — technique: RNA Bind-n-Seq; molecule type: RNA; sample: in vitro; tested at: 365 nM; relative to: no-protein control; direction: higher = stronger binding
Target: RNA binding protein fox-1 homolog 2, RRM domain, GST-SBP tag (RBFOX2, Homo sapiens, UniProt O43251-10, residues 100-194)
Notes: natural RNA segment, single round, ends assumed
Construct (chain): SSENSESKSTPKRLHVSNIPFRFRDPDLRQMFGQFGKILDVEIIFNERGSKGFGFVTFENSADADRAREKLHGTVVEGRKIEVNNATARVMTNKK
| Oligonucleotide | RBNS enrichment (R) |
| --- | --- |
| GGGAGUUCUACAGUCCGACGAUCUCCUCACCUUGAUCAGGACUAAAGGACGGAGGCCACUCCACCCCUUCCCCUUCUUCCAAAUCCCUAACUUCCUCCAGGCAAAACCCUCUGCCCUGCAGGAUUGAAGAUGGUGGAAUUCUCGGGUGCCAA | 0.335 |
| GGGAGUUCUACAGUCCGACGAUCUACUUAUGUAGUUGGUGAGGUCUUCUCAAAAGUAUCUACCUUUGUUAGAUAAUAACAAGUGAUUAAGAAAGGGGAGAUAUGGUUUUAUACUCAUAACAAUUUCCUGUGCCUGGAAUUCUCGGGUGCCAA | 0.373 |
| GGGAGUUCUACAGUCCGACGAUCGGGUGGGAUAAAAGGUGGCAGAGGGAGCAAGGUCUUAAUUGCUCUGAAGGUUGGACCCGUGAAGCCCUGGCAUAGACCUGAAGAGGUGGCAGCCAGUGGGUGGUUGUUUCUGGAAUUCUCGGGUGCCAA | 0.809 |
| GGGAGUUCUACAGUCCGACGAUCUCUCUGAUUUUGCCUCCUCACUCUGUGUCUGGCUUUGCUCCUGGGUCUUGGCCCUGGGCCAUAUGAGGGGCCAGGAAAUGAACGACAAGGAGGAUAAGAGUGUUCUUUCUUGGAAUUCUCGGGUGCCAA | 1.13 |
| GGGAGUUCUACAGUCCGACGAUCCCAGUCCCCCAACACUCCCUUCUUCGGAUACAGGUGCCAAAGAACAUUGUGAAGAAAUGAAGAACCGAUAGUCUAGUUUAAGAAAGUGGCUCUCAGUAUUGUGACAGUACUGGAAUUCUCGGGUGCCAA | 0.43 |
| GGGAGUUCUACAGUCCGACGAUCCUUAUUCUUGGUUCAUCAUACUCCAGACCAUGUAUCCUCUGGUGUCCUGGCUGGAAGAAGGGGCGUGUGGCCAUGCAGCCCGCUCUCCCAAGCUGUCCCAGCAAAUGGGCUGGAAUUCUCGGGUGCCAA | 0.336 |
| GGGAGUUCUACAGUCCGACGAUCCAACGAUUUGGUCAAGGAGGUUAUGAUUCUUCAUAGUCACUCUCCUCAUGAAUCCUUCCCAUUUAUUCCAUGGUAGGACUUGCUUAAGAUCCCUUGUUUCUUUCUCUUUUUGGAAUUCUCGGGUGCCAA | 0.499 |
| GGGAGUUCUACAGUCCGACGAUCGUUAGUUGGGCAGCCCUUCUGGGUUUCAGAGACCGGUGUUGGCUCUAGACUGGUCUCAUCUCCAUUGCCUUAAUGCCAGGUGGCCCAGGAGUACCCAUGCACAGCAGCUGUGGAAUUCUCGGGUGCCAA | 0.531 |

Block 4 — technique: universal PBM; molecule type: double-stranded DNA, one strand shown; sample: in vitro; tested at: not given; direction: higher = stronger binding
Target: Sal-like protein 4, full length isoform B (SALL4, Homo sapiens, UniProt Q9UJQ4-2, residues 1-616)
Notes: 8-mer, flanks averaged, mean of replicates
Construct (chain): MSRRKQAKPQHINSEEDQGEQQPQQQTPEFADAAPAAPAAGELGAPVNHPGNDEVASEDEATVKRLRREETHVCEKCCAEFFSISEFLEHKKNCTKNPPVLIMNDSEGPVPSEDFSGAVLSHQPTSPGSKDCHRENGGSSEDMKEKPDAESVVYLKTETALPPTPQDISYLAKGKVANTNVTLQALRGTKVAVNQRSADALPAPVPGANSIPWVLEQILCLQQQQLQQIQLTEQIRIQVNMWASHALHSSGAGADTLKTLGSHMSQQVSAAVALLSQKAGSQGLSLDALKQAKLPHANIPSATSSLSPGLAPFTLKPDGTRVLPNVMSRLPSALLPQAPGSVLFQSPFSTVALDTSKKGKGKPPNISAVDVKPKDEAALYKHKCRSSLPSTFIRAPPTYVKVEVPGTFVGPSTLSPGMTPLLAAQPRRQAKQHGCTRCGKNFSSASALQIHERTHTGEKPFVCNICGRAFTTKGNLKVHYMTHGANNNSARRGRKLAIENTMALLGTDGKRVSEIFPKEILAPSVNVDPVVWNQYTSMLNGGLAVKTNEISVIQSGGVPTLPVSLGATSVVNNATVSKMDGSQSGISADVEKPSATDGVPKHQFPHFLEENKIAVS
| Oligonucleotide | E-score |
| --- | --- |
| GACCGGCC | -0.392 |
| CAACCCTC | -0.0816 |
| GACATCAA | 0.122 |
| CATAGTCC | 0.0561 |
| TACCGCAA | 0.0958 |
| TTCACGAA | -0.0035 |
| CAGGTAAC | 0.0826 |
| CGAGAAAG | 0.0309 |

Block 5 — cell line: HEK-293T; observed: pseudovirus infection; technique: FDA-approved drug library screen; organism: VSV pseudotyped with SARS-CoV-2 spike; tested at: 10 µM; time: 16 h; relative to: vehicle-treated
| Structure (SMILES) | GFP-positive cells [%] |
| --- | --- |
| CCN(Cc1ccncc1)C(=O)C(CO)c1ccccc1 (centres unmarked) | 85.1 |
| S=c1[nH]cnc2nc[nH]c12 | 90.3 |
| COc1cc(NC(C)CCCN)c2ncccc2c1 (centres unmarked) | 51.9 |

Block 6 — mode: inhibitor; tested at: 20 µM
Target: Replicase polyprotein 1ab, nsp13 helicase (rep, Severe acute respiratory syndrome coronavirus 2, UniProt P0DTD1)
| Structure (SMILES) | inhibition [%] |
| --- | --- |
| CCn1cc(-c2cccc(C(F)(F)F)c2)c2sc(C(=N)NC3CCS(=O)(=O)CC3)cc2c1=O | 0.76 |
| CCN(CC)CCCN(c1ccccc1)C1Cc2ccccc2C1 | -0.19 |
| CC(C)C(N)=O | 4.41 |
| CNCC/C=C/c1cccnc1 | 1.77 |
| O=C1Cc2c([nH]c3ccc(Br)cc23)-c2ccccc2N1 | 2.53 |
| CC1=CC(=O)NS(=O)(=O)O1 | 6.33 |
| Cc1cc(I)ccc1Nc1c(C(=O)NOCC2CC2)cc(F)c(F)c1F | 2.95 |
| NC(=O)NC(=O)Cc1ccccc1 | -2.69 |
| Nc1nccc(-c2c(-c3ccc(F)cc3)ncn2C2CCCCC2)n1 | 8.25 |
| Cc1cccc(CN2CCN(C(c3ccccc3)c3ccc(Cl)cc3)CC2)c1 (centres unmarked) | -2.55 |
| C[C@@H]([C@H](C)O)[C@H](N)C(=O)O | 91.2 |
| COc1cccc([C@@H](C)NCCCc2ccccc2Cl)c1 | 3.33 |
| CC(=O)N(CC(C)C(=O)O)c1c(I)cc(I)c(N)c1I (centres unmarked) | 6.93 |
| COc1cc(C(C)=O)ccc1O | 9.32 |
| Cc1cc(C)c(CNC(=O)c2cc(-c3ccc(CN4CCOCC4)cc3)cc3c2cnn3C2CCCC2)c(=O)[nH]1 | 8.82 |
| O=C(CBr)N1CC([N+](=O)[O-])([N+](=O)[O-])C1 | 8.94 |
| CC[C@H](c1ccc(O)cc1)[C@@H](CC)c1ccc(O)cc1 | -0.7 |
| O=C(CCCN1CCC(n2c(=O)[nH]c3ccccc32)CC1)c1ccc(F)cc1 | 6.76 |
| c1ccc2nc(C3=NCCN3)ccc2c1 | 8.57 |
| COC1=C[C@@H]2[C@@H]3Cc4ccc(OC)c(O)c4[C@]2(CCN3C)CC1=O | 3.36 |
| CCCN1CCC[C@@H]2Cc3nc(N)ncc3C[C@H]21 | 1.82 |
| Cc1ccc(S(=O)(=O)NCl)cc1 | 100 |
| O=C(Nc1ccc(-c2ccncc2)cc1)N[C@H](CO)c1ccccc1 | -3.18 |
| CC[C@@H](c1ccc(F)c(F)c1)n1c(C(=O)OC)c(-c2ccno2)[nH]c1=S | 0.75 |
| CNC(=O)COC(=O)NCCC1CCN(c2cccc(C)n2)CC1 | 1.71 |
